Results pooled from the literature.
Parts stem from different laboratories: compare values within a part only.
UniProt P42336, sequence (whole entry, unmodified, looked up): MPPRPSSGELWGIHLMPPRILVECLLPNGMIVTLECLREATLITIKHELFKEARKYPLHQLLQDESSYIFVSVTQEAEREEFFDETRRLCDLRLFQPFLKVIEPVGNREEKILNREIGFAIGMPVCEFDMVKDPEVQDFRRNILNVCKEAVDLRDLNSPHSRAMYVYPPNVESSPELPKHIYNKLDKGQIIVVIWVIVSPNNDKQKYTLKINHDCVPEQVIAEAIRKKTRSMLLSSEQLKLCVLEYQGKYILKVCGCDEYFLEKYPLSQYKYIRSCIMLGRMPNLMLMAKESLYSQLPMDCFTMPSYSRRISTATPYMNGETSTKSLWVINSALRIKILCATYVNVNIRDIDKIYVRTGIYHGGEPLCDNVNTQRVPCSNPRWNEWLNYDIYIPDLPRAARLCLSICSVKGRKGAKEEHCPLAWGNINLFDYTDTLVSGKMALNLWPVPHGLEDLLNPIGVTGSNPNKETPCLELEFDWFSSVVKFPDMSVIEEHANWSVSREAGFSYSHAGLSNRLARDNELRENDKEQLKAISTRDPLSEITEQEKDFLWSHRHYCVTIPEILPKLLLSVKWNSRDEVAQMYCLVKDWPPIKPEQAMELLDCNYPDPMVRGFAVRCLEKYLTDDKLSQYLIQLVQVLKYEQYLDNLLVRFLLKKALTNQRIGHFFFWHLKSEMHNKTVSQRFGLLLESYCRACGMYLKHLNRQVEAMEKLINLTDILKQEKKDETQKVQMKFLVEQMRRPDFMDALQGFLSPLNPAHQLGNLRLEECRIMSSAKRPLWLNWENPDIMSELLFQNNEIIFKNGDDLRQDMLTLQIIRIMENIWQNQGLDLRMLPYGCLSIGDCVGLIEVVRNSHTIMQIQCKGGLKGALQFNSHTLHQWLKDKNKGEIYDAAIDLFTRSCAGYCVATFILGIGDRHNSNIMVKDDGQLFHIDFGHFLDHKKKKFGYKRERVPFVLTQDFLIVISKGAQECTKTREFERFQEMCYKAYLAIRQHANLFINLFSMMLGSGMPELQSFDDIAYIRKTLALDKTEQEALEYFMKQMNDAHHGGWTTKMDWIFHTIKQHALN
UniProt Q99755, sequence (whole entry, looked up): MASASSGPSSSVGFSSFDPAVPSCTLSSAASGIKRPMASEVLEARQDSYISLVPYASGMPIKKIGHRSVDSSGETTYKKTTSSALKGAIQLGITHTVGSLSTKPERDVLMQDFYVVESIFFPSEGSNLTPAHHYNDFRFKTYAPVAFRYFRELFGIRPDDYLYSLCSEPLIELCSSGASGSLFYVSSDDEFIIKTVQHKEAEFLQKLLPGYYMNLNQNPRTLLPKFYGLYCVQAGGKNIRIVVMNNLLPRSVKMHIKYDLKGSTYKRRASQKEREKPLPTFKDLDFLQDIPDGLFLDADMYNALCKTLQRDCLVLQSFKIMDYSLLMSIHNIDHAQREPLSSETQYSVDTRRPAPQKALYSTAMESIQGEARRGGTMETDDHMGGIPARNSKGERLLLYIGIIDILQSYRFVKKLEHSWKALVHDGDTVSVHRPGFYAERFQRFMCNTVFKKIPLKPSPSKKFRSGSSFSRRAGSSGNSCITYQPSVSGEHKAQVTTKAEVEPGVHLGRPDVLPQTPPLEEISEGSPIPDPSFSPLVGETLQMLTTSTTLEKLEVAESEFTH
UniProt O94768, sequence (whole entry, looked up): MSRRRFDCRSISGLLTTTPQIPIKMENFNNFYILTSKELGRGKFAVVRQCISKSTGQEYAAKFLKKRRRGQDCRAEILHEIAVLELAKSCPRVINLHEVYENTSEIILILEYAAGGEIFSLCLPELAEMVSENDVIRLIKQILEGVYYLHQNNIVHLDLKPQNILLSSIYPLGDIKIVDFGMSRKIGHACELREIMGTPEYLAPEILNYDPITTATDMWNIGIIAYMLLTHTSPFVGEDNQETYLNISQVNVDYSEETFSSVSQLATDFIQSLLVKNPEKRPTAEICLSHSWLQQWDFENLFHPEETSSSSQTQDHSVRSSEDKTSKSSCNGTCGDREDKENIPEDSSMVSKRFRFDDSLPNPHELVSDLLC
UniProt Q15835, sequence (whole entry, looked up): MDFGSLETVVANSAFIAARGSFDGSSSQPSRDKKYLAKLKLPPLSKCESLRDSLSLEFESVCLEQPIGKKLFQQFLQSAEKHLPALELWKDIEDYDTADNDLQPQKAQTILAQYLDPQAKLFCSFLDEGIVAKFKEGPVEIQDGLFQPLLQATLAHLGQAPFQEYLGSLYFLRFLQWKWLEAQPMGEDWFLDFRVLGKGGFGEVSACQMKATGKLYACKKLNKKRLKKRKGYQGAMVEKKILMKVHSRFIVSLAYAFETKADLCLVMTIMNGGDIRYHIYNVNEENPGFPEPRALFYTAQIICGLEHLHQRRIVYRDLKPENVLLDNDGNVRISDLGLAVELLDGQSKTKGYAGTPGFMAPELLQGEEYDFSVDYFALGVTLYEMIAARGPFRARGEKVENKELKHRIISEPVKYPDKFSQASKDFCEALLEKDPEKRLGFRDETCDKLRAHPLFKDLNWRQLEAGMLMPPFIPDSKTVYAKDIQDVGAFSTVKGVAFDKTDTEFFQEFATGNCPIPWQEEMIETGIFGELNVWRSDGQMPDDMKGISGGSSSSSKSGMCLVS
UniProt Q9NY57, sequence (whole entry, looked up): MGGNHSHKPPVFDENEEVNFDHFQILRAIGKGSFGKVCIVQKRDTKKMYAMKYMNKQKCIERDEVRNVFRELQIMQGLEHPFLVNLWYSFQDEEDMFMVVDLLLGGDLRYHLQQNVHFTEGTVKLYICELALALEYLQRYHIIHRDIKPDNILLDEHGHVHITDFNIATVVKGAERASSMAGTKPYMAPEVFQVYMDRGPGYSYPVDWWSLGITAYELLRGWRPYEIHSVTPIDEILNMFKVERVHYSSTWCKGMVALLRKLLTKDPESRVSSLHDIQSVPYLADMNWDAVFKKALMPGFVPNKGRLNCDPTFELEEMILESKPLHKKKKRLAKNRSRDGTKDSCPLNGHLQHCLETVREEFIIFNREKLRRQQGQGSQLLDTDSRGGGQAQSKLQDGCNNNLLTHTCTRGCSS

Sample 1 — observed: enzyme activity; mode: inhibitor; concentration: 10 µM; quantity: inhibition
Target: Calcium/calmodulin-dependent protein kinase type II subunit alpha (CAMK2A, Homo sapiens, UniProt Q9UQM7)
UniProt Q9UQM7, sequence (whole entry, looked up): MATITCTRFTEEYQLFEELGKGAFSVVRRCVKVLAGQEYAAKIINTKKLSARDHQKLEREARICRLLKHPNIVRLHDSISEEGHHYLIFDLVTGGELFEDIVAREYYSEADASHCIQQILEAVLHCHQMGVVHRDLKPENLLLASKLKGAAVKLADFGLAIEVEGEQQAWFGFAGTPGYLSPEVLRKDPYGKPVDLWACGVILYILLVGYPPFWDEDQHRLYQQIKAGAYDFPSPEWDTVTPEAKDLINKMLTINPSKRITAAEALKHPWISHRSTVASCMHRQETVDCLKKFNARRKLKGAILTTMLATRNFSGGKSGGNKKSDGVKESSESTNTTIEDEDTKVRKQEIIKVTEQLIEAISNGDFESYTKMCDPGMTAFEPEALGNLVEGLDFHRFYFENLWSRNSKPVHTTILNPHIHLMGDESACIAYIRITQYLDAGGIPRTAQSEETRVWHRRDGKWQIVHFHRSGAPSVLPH
NC(=O)NCCC(=O)O: -9%
CC(C)=CCc1cc2c(=O)cc(-c3ccc(O)cc3)oc2cc1O: -23%
CS(=O)(=O)c1ccc(Oc2cc(F)cc(C#N)c2)c2c1[C@H](O)[C@H](F)[C@@H]2F: 1%
CC1(C)CCC[C@](C)([C@H]2CC[C@]3(C)[C@@H]2[C@H](O)C[C@@H]2[C@@]4(C)CC[C@H](O)C(C)(C)[C@@H]4[C@H](O)C[C@]23C)O1: 13%
Cc1cc(NS(=O)(=O)c2ccc(N)cc2)nc(C)n1: 3%
COc1cc(CCC(=O)CC(O)CCc2ccc(O)c(OC)c2)ccc1O (stereo not drawn): -13%
O=C(O)CCc1ccccc1: 27%
CSCCC(=O)O: -1%
COc1cc(/C=C/CO)ccc1O[C@@H]1O[C@H](CO)[C@@H](O)[C@H](O)[C@H]1O: 6%
NCC[C@H](O)C(=O)N[C@@H]1C[C@H](N)[C@@H](O[C@H]2O[C@H](CN)[C@@H](O)[C@H](O)[C@H]2O)[C@H](O)[C@H]1O[C@H]1O[C@H](CO)[C@@H](O)[C@H](N)[C@H]1O: -5%
CC(C)[C@H](N)C(=O)OCCOCn1cnc2c(=O)[nH]c(N)nc21: -4%

Sample 2 — mode: inhibitor; concentration: 10 µM; reference: control; quantity: remaining activity
Target: Diamine acetyltransferase 1 (Homo sapiens, UniProt P21673)
Residues (P21673 1-171): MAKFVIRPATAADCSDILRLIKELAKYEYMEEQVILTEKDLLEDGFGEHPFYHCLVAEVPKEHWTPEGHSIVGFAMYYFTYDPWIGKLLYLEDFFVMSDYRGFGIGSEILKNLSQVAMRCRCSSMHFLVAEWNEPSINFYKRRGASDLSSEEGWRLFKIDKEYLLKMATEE
COc1cc2oc(=O)ccc2cc1CC=C(C)C: 82%
COc1cc([C@@H]2OC[C@@H]3[C@H]2CO[C@H]3c2cc(OC)c(O)c(OC)c2)cc(OC)c1O: 97.3%
COc1ccc(O)cc1: 84.3%
COc1cc2oc(=O)ccc2cc1O: 104%
COc1cc2c(cc1OC)[C@@H](Cc1ccc(O)c(Oc3cc4c(cc3OC)CCN(C)[C@@H]4Cc3ccc(O)cc3)c1)N(C)CC2: 99.9%
CC(C)(O)[C@@H]1CC[C@](C)([C@H]2[C@@H](O)C[C@@]3(C)[C@@H]4C[C@H](O)[C@H]5C(C)(C)[C@@H](O[C@@H]6OC[C@@H](O)[C@H](O)[C@H]6O[C@@H]6O[C@H](CO)[C@@H](O)[C@H](O)[C@H]6O)CC[C@@]56C[C@@]46CC[C@]23C)O1: 102%
O=c1c(O)c(-c2ccc(O)c(O)c2)oc2cc(O[C@@H]3O[C@H](CO)[C@@H](O)[C@H](O)[C@H]3O)cc(O)c12: 98.1%
C[C@@H]1O[C@@H](O[C@H]2[C@H](O[C@H]3CC[C@@]4(C)[C@@H](CC[C@]5(C)[C@@H]4CC=C4[C@@H]6CC(C)(C)CC[C@]6(C(=O)O[C@@H]6O[C@H](CO[C@@H]7O[C@H](CO)[C@@H](O)[C@H](O)[C@H]7O)[C@@H](O)[C@H](O)[C@H]6O)CC[C@]45C)[C@]3(C)CO)OC[C@H](O)[C@@H]2O)[C@H](O)[C@H](O[C@@H]2O[C@H](CO)[C@@H](O[C@@H]3O[C@H](CO)[C@@H](O)[C@H](O)[C@H]3O)[C@H](O)[C@H]2O)[C@H]1O: 92%

Sample 3 — Structure (SMILES): O=c1nc(-c2ccccn2)sc2ccccc12; concentration: 1 µM; quantity: remaining binding
HIPK1 (Homo sapiens, UniProt Q86Z02); binding, competition with immobilised ligand: 61%
PIK3CA (Homo sapiens, UniProt P42336, H1047L); cell-free assay, competition with immobilised ligand: 76%
TEK (Homo sapiens, UniProt Q02763); cell-free assay, competition with immobilised ligand: 99%
STK32B (Homo sapiens, UniProt Q9NY57); binding, competition with immobilised ligand: 100%
CDK11B (Homo sapiens, UniProt P21127); cell-free assay, competition with immobilised ligand: 100%
OXSR1 (Homo sapiens, UniProt O95747); binding, competition with immobilised ligand: 100%
CDK16 (Homo sapiens, UniProt Q00536); binding, competition with immobilised ligand: 100%
PIP5K1A (Homo sapiens, UniProt Q99755); cell-free assay, competition with immobilised ligand: 100%
PAK5 (Homo sapiens, UniProt Q9P286); cell-free assay, competition with immobilised ligand: 87%
BRAF (Homo sapiens, UniProt P15056); cell-free assay, competition with immobilised ligand: 100%
Tyrosine-protein kinase ABL1, phosphorylated (ABL1, Homo sapiens, UniProt P00519, Y253F); binding, competition with immobilised ligand: 83%
MAPK15 (Homo sapiens, UniProt Q8TD08); binding, competition with immobilised ligand: 100%
CSNK1G2 (Homo sapiens, UniProt P78368); cell-free assay, competition with immobilised ligand: 74%
GRK1 (Homo sapiens, UniProt Q15835); binding, competition with immobilised ligand: 76%
PRKACB (Homo sapiens, UniProt P22694); cell-free assay, competition with immobilised ligand: 92%
MAP2K1 (Homo sapiens, UniProt Q02750); binding, competition with immobilised ligand: 100%
Tyrosine-protein kinase ABL1, phosphorylated (ABL1, Homo sapiens, UniProt P00519, F317I); binding: 91%
SIK3 (Homo sapiens, UniProt Q9Y2K2); binding, competition with immobilised ligand: 85%
NEK6 (Homo sapiens, UniProt Q9HC98); binding, competition with immobilised ligand: 100%
SBK3 (Homo sapiens, UniProt P0C264); binding, competition with immobilised ligand: 100%
PLK4 (Homo sapiens, UniProt O00444); binding, competition with immobilised ligand: 80%
CSNK1G1 (Homo sapiens, UniProt Q9HCP0); cell-free assay, competition with immobilised ligand: 96%
STK17B (Homo sapiens, UniProt O94768); cell-free assay, competition with immobilised ligand: 80%
HIPK3 (Homo sapiens, UniProt Q9H422); binding, competition with immobilised ligand: 92%
CDC42BPA (Homo sapiens, UniProt Q5VT25); cell-free assay, competition with immobilised ligand: 91%

Sample 4 — mode: degrader; method: HiBiT; cell line: HEK293; time: 6 h; quantity: remaining protein
Structure (SMILES): O=C1CCC(N2Cc3cc(C4CCN(Cc5ccccc5)CC4)ccc3C2=O)C(=O)N1 (stereo not drawn)
SALL4: Sal-like protein 4 (SALL4, Homo sapiens, UniProt Q9UJQ4)
UniProt Q9UJQ4, sequence (whole entry, looked up): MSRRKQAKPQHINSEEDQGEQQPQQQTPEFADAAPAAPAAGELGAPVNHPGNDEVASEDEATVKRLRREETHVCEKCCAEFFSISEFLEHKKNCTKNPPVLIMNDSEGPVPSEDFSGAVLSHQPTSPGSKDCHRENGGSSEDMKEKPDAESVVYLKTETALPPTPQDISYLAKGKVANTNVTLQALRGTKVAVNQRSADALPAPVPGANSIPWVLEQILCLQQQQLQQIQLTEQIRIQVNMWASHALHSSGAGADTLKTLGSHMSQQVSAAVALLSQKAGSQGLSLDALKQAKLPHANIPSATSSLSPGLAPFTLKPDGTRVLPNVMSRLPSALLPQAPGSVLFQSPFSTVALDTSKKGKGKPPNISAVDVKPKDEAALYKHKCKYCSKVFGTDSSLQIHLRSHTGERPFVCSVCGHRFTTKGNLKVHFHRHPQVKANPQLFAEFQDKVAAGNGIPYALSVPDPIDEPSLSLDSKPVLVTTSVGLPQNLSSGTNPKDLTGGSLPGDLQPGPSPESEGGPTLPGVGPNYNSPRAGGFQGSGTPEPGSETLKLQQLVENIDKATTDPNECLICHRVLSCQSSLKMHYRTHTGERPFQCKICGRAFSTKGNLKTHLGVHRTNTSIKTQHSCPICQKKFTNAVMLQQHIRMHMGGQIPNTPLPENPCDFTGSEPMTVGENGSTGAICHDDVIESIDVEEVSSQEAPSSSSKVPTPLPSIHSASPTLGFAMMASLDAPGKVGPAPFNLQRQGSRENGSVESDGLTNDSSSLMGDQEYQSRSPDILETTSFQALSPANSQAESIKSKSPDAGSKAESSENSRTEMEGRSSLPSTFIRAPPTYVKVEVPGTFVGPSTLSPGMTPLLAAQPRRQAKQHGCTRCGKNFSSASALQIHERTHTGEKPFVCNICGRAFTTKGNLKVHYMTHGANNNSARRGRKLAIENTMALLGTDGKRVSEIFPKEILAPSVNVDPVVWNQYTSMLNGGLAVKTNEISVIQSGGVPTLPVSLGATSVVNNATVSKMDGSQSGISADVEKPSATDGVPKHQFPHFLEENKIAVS
GSPT1: Eukaryotic peptide chain release factor GTP-binding subunit ERF3A (GSPT1, Homo sapiens, UniProt P15170)
UniProt P15170, sequence (whole entry, looked up): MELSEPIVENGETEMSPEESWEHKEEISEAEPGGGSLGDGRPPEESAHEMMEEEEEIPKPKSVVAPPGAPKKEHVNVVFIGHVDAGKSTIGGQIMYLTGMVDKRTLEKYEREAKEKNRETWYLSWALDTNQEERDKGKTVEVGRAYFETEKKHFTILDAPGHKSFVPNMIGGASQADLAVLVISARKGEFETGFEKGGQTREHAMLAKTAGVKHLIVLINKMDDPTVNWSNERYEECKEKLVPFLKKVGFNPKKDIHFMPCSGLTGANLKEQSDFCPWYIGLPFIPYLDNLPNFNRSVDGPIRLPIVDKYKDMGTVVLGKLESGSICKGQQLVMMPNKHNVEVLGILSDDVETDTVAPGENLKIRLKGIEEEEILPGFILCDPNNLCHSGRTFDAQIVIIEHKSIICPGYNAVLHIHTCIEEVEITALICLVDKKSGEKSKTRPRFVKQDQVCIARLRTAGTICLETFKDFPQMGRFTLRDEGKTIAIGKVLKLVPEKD
CSNK1A1 (Homo sapiens, UniProt P48729); 0.01372 µM: 90.7%
SALL4; 0.004572 µM: 61.8%
GSPT1; 0.0001694 µM: 110%
SALL4; 0.0005081 µM: 77.9%
GSPT1; 0.01372 µM: 111%
DNA-binding protein Ikaros (Homo sapiens, UniProt Q13422); 0.1235 µM: 97.1%
Zinc finger protein Aiolos (Homo sapiens, UniProt Q9UKT9); 0.1235 µM: 83.7%

For quick reference, copied from above (sample 4):
CSNK1A1 (Homo sapiens, UniProt P48729); 0.01372 µM: 90.7%
SALL4; 0.004572 µM: 61.8%
GSPT1; 0.0001694 µM: 110%
SALL4; 0.0005081 µM: 77.9%
GSPT1; 0.01372 µM: 111%
DNA-binding protein Ikaros (Homo sapiens, UniProt Q13422); 0.1235 µM: 97.1%
Zinc finger protein Aiolos (Homo sapiens, UniProt Q9UKT9); 0.1235 µM: 83.7%
